Measured values of several laboratories.
Compare with care: the assays were run in different laboratories. ± gives the spread as reported.
Grm5: Metabotropic glutamate receptor 5 (Grm5, Rattus norvegicus, UniProt P31424)
UniProt P31424, sequence (whole entry, looked up): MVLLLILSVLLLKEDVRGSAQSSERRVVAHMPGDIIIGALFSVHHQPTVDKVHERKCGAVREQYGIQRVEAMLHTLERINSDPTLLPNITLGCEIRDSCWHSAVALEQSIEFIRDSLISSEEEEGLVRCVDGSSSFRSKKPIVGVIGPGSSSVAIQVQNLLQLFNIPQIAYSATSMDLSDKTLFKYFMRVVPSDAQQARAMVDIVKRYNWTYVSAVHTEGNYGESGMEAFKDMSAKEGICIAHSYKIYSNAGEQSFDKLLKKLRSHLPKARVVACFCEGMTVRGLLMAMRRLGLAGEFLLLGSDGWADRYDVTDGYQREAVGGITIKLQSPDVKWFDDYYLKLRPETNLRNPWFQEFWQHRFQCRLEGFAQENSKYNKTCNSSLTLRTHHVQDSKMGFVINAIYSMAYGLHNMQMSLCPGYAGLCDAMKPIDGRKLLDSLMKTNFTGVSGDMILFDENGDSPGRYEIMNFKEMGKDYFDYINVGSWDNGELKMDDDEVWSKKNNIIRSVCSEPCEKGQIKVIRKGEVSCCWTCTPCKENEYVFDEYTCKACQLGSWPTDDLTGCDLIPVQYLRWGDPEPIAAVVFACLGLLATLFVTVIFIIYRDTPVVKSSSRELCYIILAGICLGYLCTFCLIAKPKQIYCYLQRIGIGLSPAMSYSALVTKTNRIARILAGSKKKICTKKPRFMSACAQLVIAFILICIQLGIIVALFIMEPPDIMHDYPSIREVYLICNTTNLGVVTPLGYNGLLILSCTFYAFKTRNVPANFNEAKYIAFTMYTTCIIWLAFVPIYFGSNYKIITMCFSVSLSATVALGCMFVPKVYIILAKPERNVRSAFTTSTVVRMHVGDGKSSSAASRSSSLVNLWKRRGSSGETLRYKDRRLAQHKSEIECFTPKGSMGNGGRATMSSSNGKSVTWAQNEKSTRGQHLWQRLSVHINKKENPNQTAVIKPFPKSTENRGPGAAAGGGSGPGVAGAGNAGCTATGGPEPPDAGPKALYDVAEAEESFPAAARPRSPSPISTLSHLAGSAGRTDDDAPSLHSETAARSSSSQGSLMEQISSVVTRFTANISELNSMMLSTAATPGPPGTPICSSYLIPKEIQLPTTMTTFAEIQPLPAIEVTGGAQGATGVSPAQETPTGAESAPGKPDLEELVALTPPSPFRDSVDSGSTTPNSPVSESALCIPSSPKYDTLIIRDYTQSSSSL

| Structure (SMILES) | target | assay | test system | setting | scale | measurement | result |
| --- | --- | --- | --- | --- | --- | --- | --- |
| CCCCOc1ccc(C(=O)Nc2ccc(F)cc2F)cc1 | Grm5 | calcium mobilization, positive allosteric modulator | HEK293 | concentration not given, with: EC20 glutamate | reference: maximal glutamate response | potentiation | 92% |
| N#Cc1cnc(Nc2nc3ccccc3o2)nc1-c1ccc(F)cc1 | Grm5 | calcium mobilization, negative allosteric modulator | – | 30 min, with: glutamate | – | pKB | 7.11 ± 0.28 -log M |
| COc1ccccc1-c1nc(Nc2nc3ccccc3o2)ncc1C#N | Grm5 | calcium mobilization, negative allosteric modulator | – | with: glutamate EC80 | reference: maximal glutamate response | maximal response | 0.9 ± 0.4% |
| N#Cc1cc(F)cc(C(=O)Nc2cccc(Cl)c2F)c1 | Grm5 | calcium mobilization, negative allosteric modulator | – | 30 min, with: glutamate | – | pKB | 6.57 ± 0.18 -log M |
| N#Cc1cnc(Nc2nc3ccccc3o2)nc1-c1cccs1 | Grm5 | calcium mobilization, negative allosteric modulator | – | with: glutamate EC80 | reference: maximal glutamate response | maximal response | 35 ± 10% |
| CCCCOc1ccc(C(=O)NC2CCCCC2)cc1 | Metabotropic glutamate receptor 5, MPEP allosteric site (Grm5, Rattus norvegicus, UniProt P31424) | [3H]methoxyPEPy binding, radioligand displacement | – | 10 µM | – | inhibition | 12 to 27% |
| Cc1nc(C#Cc2cccnc2)cs1 | Grm5 | calcium mobilization, negative allosteric modulator | – | 30 min, with: glutamate | – | pKB | 6.97 ± 0.15 -log M |
| N#Cc1cnc(Nc2nc3ccccc3o2)nc1-c1ccc(Cl)cc1F | Grm5 | calcium mobilization, negative allosteric modulator | – | with: glutamate EC80 | reference: maximal glutamate response | maximal response | 1.8 ± 0.5% |
| CCCCOc1ccc(C(=O)Nc2ccc(Cl)cn2)cc1 | Grm5 | calcium mobilization, positive allosteric modulator | HEK293 | concentration not given, with: EC20 glutamate | reference: maximal glutamate response | potentiation | 112% |
| Nc1cc(NC(=O)c2cccc(Cl)c2)cc(Oc2cccnc2)c1 | Grm5 | calcium signal, antagonist | – | 30 µM | – | remaining activity | 1.3% |

Some of these lines once more:
| Structure (SMILES) | target | assay | test system | setting | scale | measurement | result |
| --- | --- | --- | --- | --- | --- | --- | --- |
| N#Cc1cnc(Nc2nc3ccccc3o2)nc1-c1ccc(Cl)cc1F | Grm5 | calcium mobilization, negative allosteric modulator | – | with: glutamate EC80 | reference: maximal glutamate response | maximal response | 1.8 ± 0.5% |
